# Assay results pooled from the literature.
# A part holds a random share of what one study measured.

# Series 1
# Target: RNA binding protein fox-1 homolog 2, RRM domain, GST-SBP tag (RBFOX2, Homo sapiens, UniProt O43251-10, residues 100-194)
# Technique: RNA Bind-n-Seq
# Molecule type: RNA
# Sample: in vitro
# Concentration: 365 nM
# Notes: natural RNA segment, single round, ends assumed
# Relative to: no-protein control
# Reading: higher = stronger binding
# Shared flanks, not repeated: GGGAGUUCUACAGUCCGACGAUC … UGGAAUUCUCGGGUGCCAA
# Residues (chain): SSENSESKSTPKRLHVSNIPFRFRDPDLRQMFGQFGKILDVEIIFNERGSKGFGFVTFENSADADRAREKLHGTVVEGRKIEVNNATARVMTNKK
Sequence,RBNS enrichment (R)
ACUUGUGAGAAUCAGGAAAGAAUUCCUCGAGUUGCUUUGCAUCCUCUUGGACCAGGGCUUGCAAGGCGAUUUGGGUUUCUGUGAGCUUGCCCAGUUGACCCGAAAAAUAG,0.702
CCAUGCCACCACUUGGGUUUUUUCCAUGGGAAGCAGCCUGCUGGGUGUGCAAGGCCGAGUGAUGGCUGAUCAAUCAAAGCCGUGGUCUAGGACCAGCUCCCACGUGCCAU,0.305
UUAAUGGAGUCUUGGACCCUUUCUUUCUCUGGGAUCCCUGCCCAGCACCUUCCUAUAGAGAUGACUUUAAAAGGAAAAAAAAAAAAAAAAAAACCCACAUGAUUUCAAGG,0.642
GUCAUUUCUGCACACCUGUCCGCUGUUGACACCUUAUUAGAGGCACUGCAUUUUGGUUUCACAAUUCUUCAUCUCCCUUCCCAAGGAAUGGGCAAUCUACUGAACUUCCA,0.64
GGUUCCUCUAUUGGCUCUGCUCAAAUGUUGCAGGAUACAUAGCCCCAAAGAUGGUCUAGGAGCAAUCUAAGCUGUGUUACUCCAAAGGACAUGAAAAAGCUCAAGAGUAA,0.35
GAAAAGUAUUUUCUGUUAAUUUUUUUAAUUUUUGGCCAAAUUAUUUUCUCUUUGUCAUUAAAGUCAAAUGUCUAUCUGGCUCACCACAAAGUGUUCUUUGAUUUUGGCUU,0.458
AGAUGGAAUCUUGGGGACAGGAGGGAGAGGGUUGGUAACUACUGUGAGCAAGUCCCCCAAGCCCUGACCAGCCUCCUCCCAUGACUGGUGACUGUUUAACAAGCUGUGCA,4.38
GACUAUUUGAAUUUCAAGAACUGUGCUGCGAAGACACUCUGAGAACAUUUGCAAGUCAGGGGCAUUUUCCUUGACCCUUGACUGAUGCUAUGCGGAGACUGAUACAUUUU,0.62
UUCUCCCCUGCCCUUCCUCCUGAUGGAGUGUGCAGACAGCCAUGCGUGGCCACGGGGGCAGUGUGAGGACCUCCCUGUCUCCCGGCUCCCCUCCCAGGGGAGCCAGCUGC,0.215
UAGUGUUGGUGCAGCACCAGCCUGGGCUCUGGGCUCCUCACCGAGACUCAGAGGCCACACUGAUUUGUGCUGCAUCCAGACCCCCGUCUCCCUCCCCACCACCAUUCCUU,0.17
UUACAUAGCACAUCAUUCCUCCUAUAGGGAUGAACUUUUUUUCCGACACAAAAAGUAGCCACUGCGGUUAAAGCUUUGCUUAUUGUAACAGGCUUUUAUUUCCAGGUAAC,0.633
GGAUGUCUGCGCCAGGGCCAGCCACAUGUGCAGUUUCUCUGACCCUUUUGCCUUGACAGGUCUCUCCUUGGGAUUUGCUCCUCCAGAACCUGAAUUGGAGAGCUUGACCU,0.481

# Series 2
# Target: RING finger protein unkempt homolog, zinc fingers 1-6, GST-SBP tag (UNK, Homo sapiens, UniProt Q9C0B0, residues 30-357)
# UniProt Q9C0B0, sequence (30-357, looked up): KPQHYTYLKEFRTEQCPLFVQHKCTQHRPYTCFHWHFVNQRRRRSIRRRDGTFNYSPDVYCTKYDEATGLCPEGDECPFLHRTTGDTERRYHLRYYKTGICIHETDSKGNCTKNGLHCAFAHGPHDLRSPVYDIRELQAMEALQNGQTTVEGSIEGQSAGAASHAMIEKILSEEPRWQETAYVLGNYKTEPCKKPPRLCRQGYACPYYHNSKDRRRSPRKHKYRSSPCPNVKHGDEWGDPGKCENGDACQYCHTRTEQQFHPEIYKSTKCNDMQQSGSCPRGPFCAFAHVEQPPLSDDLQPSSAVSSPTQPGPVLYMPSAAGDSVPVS
# Technique: RNA Bind-n-Seq
# Molecule type: RNA
# Sample: in vitro
# Concentration: not given
# Notes: RNA with constant flanks, human and mouse sites, ends assumed
# Relative to: input RNA pool
# Reading: higher = stronger binding
# Shared flanks, not repeated: GGGAGUUCUACAGUCCGACGAUC … CAACAGAGGAUUGAGCAUCA
Sequence,bound/input enrichment [ratio]
GCGGCAGCUGUUGCCCUUUCCUCUCUCGUUCAUGCUUUGGAUGAGUUAAACAUGGUCGCCAUCGUCCGAUAUGCUUAUGACAAAAGAUCUAAUCCUCAAGUUGGUGUAGCCUUCCCUUAC,0.294
UGUUUCAUAUCCAUAUCCCACUGUAUUCCUGCUAAUCUGCUAAUGCAGUAAAUUGGAGGAAAACUGUUACCAGGAUAACCUGUAAUGGGCAAGGAGCCACAAAGAAGAAAACAUUUCUUU,0.155
CGGUACCCAGACAUCCGCAUUGAAGGAGAGAAUUACCUCCCUCAACCAAUAUAUAGACACAUAGCAUCUUUCCUGUCAGUCUUCAAACUAGUAUUAAUAGGCUUAAUAAUUGUUGGCAAG,50.5
UUCAGUACAGAUUCGAUUCAUCUGGCCUCCCCUAACAGGAAUAUUGAUGUUUCAACUACCAUAUCUAAGUUUACAAACACACAGAUUACAGAACAUUACUCUACCUGUAUCAAGCUUUCU,0.103
GGUCCCGCCUGUGGCAGCAUCCUUGGGCCAGGGCCACAGCCGAUAUCUUAUACGACCUGUGUUUAGGACAUUUUUUAAAUCAUUGUGUCUAAGCAUCUCAGAGUCAAGUGUGCUUCUUUG,0.18
UAGCCCUGGGGCCAUGUUCGAGUGGGGCUCUCAGCGCCUGGAGGUGAGCCACGUGCACAAAGUGGAGUGCGUGAUCCCCUGGCUCAACGACGCCCUGGUCUACUUCACCGUCUCCCUGCA,0.104
AUUCUAACGAUGAUUCCCACCGAUGAGGAGAAGCAGAAAAUCCAGGAAGCUCAGCUGGCCAACCCUGAAAUCCCCCUGGGCAGUGCAGAGCAGUUCCUCCUCACCCUGUCCUCCAUCAGC,0.142
UUCACCAAGCUGAUAAACCCCCAGGAAAACACCUGCAGCUUGGAGGAGUUUGUCCUCCAGCUGGAGCUGUCUGGGUAUAGUCCCGAAGACCUGACUGCUGCCUUGGAGAUCUUGGAAGCC,0.151
AUAUUCUUUGUAAUGGAUGCAGCUGAAAGAAUGUCUAUUCUACAUCAUGAUCGAGAAGUUCGCAAAGAGAAAAUGCUCAGGCAAAUGGAUAAAAUGAAAAGUCCACGAGUGGCUCUUUCA,0.218
AAACUAAUACUUAUCUUUAAAAUAGUAAAUAGGAUUUUAAACAGAGAAUUUUAUCAGUAAUAGGUGUCAGUUUUUAAAAAAUUGCUUGUAGGCUGAGCGCGGUGGCUCACGCCUGUAAUC,3.23
CCUGGGCUCUAGCCUCCCUUAGUUGAGCACAGAACUCACAGCUCUGGUGCAGGCAGACCCUGCCACUCAGGUGCCUAAGCAAAGGACAAGCCGUCCAGAUAGAACUGUACAUAGCUAGUG,0.955

# Series 3
# Target: Sal-like protein 4, full length isoform B (SALL4, Homo sapiens, UniProt Q9UJQ4-2, residues 1-616)
# Technique: universal PBM
# Molecule type: double-stranded DNA, one strand shown
# Sample: in vitro
# Concentration: not given
# Notes: 8-mer, flanks averaged, mean of replicates
# Reading: higher = stronger binding
# Construct (chain): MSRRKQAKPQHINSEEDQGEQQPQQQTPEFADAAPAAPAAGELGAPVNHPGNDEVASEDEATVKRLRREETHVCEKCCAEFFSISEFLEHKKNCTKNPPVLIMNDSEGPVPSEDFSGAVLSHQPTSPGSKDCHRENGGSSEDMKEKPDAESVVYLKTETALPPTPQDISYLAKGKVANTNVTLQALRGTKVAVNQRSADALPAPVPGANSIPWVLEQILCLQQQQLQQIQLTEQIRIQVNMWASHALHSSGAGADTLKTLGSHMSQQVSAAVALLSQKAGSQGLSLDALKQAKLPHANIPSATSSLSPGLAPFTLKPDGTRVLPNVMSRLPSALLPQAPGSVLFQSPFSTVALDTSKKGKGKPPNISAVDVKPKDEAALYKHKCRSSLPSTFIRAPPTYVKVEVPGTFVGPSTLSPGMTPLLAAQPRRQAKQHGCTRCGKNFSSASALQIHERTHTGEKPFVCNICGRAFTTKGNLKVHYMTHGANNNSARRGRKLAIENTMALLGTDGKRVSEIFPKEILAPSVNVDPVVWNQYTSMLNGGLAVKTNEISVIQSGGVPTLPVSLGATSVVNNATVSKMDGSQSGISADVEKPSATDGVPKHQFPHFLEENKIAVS
Sequence,E-score
AGACCGAT,-0.0779
AGTCGCGG,-0.313
ATGGGACG,-0.17
AGGAGGGG,-0.223
GATGAGCC,-0.253
ACCCGCAT,-0.108
CGATGGAC,-0.136
AAGAGCGA,-0.219
AAGGTCGG,-0.00856
ATCACAAC,0.176
ACTTTTAC,0.233
CGCTGTGC,-0.166
ACGACGAG,-0.0627
AACAGGGG,-0.189
AAGCGGTG,-0.203
ATCCGGTC,-0.291
ACGTACGA,0.0644
TCAGTTAA,0.107
GATACTAA,0.116
CCTGCATA,0.017
CATGATCA,0.206
GACGCGAA,-0.026

# Other studies, line by line
# Molecule type: peptide
# Reading: direction not given
Sequence,target or system,assay,test system,conditions,enrichment score
IPDRSTKPVVFSPT,,peptide binding,yeast competitive growth,added: B1-Cln2 chimera,0.686
HRRRLLFACSPPPASQ,human cyclin A2,competitive growth deep sequencing,"Saccharomyces cerevisiae, cyclin A2-Cln2 fusion strain",peptide tiling library,-0.148
GSALKKLFTSTGL,human cyclin A2,"peptide binding, competitive growth sequencing","Saccharomyces cerevisiae, cyclin A2-Cln2 fusion strain",mutational scanning library 1,-0.559
LQVDDDSGDPLNLVKA,human cyclin D1-Cln2 fusion,"yeast growth, competitive growth deep sequencing",Saccharomyces cerevisiae,peptide tiling library,1.62

# For quick reference, copied from above (series 2):
Sequence,bound/input enrichment [ratio]
UUCAGUACAGAUUCGAUUCAUCUGGCCUCCCCUAACAGGAAUAUUGAUGUUUCAACUACCAUAUCUAAGUUUACAAACACACAGAUUACAGAACAUUACUCUACCUGUAUCAAGCUUUCU,0.103
AUUCUAACGAUGAUUCCCACCGAUGAGGAGAAGCAGAAAAUCCAGGAAGCUCAGCUGGCCAACCCUGAAAUCCCCCUGGGCAGUGCAGAGCAGUUCCUCCUCACCCUGUCCUCCAUCAGC,0.142
UGUUUCAUAUCCAUAUCCCACUGUAUUCCUGCUAAUCUGCUAAUGCAGUAAAUUGGAGGAAAACUGUUACCAGGAUAACCUGUAAUGGGCAAGGAGCCACAAAGAAGAAAACAUUUCUUU,0.155
